Measurements from different studies.
A part holds a random share of what one study measured.
UniProt P10721, sequence (whole entry, unmodified, looked up): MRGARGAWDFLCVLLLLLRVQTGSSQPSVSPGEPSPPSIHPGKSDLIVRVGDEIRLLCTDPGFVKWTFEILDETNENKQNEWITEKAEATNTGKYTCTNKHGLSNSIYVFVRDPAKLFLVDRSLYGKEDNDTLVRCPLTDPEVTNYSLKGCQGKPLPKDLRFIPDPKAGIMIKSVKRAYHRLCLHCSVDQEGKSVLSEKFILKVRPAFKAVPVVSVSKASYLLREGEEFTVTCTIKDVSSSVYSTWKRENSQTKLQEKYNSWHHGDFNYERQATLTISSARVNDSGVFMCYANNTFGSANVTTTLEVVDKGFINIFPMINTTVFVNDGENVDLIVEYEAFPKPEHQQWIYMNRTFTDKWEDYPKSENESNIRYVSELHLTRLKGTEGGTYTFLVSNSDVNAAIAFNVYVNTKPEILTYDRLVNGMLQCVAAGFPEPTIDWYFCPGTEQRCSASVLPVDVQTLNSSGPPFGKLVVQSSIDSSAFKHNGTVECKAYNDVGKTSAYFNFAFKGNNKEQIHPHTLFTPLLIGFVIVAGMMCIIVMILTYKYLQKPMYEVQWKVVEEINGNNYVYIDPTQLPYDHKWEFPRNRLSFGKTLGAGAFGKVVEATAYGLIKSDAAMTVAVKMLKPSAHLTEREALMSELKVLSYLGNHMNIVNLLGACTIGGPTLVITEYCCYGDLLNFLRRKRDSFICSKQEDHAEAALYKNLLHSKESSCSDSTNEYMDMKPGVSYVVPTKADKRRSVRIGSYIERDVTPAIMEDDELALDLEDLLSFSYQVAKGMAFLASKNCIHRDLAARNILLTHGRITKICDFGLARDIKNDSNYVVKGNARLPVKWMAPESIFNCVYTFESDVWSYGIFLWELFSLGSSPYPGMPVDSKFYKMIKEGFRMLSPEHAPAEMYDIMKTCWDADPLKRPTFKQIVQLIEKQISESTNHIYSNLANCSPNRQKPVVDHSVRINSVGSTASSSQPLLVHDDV
UniProt O75676, sequence (whole entry, looked up): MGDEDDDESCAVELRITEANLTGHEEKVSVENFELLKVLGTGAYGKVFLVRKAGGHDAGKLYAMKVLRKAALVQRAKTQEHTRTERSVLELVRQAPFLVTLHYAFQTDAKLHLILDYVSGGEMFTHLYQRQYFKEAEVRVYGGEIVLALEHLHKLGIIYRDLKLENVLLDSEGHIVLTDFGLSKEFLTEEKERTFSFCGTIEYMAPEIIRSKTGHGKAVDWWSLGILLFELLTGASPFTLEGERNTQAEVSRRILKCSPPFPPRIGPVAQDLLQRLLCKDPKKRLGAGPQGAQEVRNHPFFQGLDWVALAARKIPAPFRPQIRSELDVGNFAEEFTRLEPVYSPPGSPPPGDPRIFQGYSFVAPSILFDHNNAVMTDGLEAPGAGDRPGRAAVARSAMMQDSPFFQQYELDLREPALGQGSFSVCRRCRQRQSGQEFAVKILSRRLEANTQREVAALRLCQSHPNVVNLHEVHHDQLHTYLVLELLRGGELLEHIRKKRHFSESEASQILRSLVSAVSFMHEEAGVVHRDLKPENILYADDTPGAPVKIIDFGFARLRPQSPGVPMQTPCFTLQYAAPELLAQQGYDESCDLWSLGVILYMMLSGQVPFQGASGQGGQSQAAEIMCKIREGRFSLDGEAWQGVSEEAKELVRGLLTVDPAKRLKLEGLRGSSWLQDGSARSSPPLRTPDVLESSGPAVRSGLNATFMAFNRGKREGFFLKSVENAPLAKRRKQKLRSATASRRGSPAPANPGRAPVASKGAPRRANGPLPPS
UniProt Q13470, sequence (whole entry, looked up): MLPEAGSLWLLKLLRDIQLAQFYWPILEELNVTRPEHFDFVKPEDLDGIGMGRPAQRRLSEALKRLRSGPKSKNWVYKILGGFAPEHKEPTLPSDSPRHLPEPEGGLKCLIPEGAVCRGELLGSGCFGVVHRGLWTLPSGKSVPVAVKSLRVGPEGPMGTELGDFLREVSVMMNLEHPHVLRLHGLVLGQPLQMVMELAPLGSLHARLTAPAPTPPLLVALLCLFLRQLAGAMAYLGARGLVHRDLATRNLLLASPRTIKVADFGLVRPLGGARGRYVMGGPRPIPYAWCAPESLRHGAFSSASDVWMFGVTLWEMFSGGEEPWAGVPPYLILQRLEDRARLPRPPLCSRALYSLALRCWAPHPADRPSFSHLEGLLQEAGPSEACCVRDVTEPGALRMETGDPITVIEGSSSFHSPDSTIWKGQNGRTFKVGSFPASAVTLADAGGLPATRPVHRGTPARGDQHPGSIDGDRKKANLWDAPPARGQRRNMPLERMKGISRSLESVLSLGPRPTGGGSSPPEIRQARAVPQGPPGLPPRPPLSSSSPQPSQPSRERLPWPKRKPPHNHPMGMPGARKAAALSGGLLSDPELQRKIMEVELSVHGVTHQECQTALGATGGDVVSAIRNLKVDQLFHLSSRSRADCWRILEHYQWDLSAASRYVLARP
UniProt Q13464, sequence (whole entry, looked up): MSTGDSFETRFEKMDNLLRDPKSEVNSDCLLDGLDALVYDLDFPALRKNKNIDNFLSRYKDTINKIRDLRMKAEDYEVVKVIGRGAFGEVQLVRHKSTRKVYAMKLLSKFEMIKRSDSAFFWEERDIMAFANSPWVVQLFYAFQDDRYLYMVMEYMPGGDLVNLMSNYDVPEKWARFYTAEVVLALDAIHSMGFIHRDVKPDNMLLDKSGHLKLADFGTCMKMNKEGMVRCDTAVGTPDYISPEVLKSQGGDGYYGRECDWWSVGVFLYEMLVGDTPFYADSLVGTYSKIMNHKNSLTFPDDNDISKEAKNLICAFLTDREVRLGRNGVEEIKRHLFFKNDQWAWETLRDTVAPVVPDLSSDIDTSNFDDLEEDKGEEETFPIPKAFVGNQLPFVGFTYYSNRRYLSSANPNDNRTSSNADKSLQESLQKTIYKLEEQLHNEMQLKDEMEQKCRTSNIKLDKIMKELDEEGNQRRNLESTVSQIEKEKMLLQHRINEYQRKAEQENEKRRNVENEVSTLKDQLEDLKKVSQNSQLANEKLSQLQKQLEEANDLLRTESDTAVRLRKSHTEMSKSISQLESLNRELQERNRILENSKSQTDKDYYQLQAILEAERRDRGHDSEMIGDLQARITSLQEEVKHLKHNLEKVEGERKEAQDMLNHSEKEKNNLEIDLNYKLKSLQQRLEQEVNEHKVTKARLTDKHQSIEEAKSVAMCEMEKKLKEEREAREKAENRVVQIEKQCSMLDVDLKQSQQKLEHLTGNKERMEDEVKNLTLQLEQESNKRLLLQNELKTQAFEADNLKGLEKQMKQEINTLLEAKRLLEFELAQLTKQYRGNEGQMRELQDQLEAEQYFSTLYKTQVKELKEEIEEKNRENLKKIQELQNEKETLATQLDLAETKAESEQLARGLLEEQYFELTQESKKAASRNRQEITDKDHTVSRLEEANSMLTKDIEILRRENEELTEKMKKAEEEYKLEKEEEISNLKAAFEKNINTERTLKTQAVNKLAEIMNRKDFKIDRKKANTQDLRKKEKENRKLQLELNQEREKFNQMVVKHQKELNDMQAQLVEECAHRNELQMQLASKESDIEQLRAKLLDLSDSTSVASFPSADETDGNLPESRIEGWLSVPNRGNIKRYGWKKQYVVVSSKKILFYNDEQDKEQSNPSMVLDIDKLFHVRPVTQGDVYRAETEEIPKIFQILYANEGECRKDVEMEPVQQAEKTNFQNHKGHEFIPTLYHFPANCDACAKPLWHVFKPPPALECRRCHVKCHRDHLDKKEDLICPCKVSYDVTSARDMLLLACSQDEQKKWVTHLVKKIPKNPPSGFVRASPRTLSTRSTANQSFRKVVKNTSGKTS
UniProt Q13976, sequence (whole entry, looked up): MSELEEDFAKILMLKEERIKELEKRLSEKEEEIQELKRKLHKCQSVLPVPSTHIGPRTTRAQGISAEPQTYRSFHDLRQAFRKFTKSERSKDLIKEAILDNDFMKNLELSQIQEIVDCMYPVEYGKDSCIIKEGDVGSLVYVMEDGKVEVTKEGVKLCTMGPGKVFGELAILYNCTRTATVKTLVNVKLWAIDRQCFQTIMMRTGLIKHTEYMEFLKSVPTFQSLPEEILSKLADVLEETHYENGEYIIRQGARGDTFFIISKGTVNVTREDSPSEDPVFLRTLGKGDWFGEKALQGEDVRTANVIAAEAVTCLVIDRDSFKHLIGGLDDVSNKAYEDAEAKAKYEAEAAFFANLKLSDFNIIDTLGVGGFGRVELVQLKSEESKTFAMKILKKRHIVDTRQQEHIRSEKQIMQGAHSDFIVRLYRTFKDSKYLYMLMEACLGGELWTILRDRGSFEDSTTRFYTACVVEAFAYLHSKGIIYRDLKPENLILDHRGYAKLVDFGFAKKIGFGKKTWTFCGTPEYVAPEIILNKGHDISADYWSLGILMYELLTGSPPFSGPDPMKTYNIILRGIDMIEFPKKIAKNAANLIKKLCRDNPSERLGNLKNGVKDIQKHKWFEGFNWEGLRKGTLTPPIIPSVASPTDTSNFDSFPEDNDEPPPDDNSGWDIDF

Series 1 — read-out: transporter uptake; action: inhibitor; method: radiometric; notes: cell membranes
Target: Synaptic vesicular amine transporter (SLC18A2, Homo sapiens, UniProt Q05940)
UniProt Q05940, sequence (whole entry, looked up): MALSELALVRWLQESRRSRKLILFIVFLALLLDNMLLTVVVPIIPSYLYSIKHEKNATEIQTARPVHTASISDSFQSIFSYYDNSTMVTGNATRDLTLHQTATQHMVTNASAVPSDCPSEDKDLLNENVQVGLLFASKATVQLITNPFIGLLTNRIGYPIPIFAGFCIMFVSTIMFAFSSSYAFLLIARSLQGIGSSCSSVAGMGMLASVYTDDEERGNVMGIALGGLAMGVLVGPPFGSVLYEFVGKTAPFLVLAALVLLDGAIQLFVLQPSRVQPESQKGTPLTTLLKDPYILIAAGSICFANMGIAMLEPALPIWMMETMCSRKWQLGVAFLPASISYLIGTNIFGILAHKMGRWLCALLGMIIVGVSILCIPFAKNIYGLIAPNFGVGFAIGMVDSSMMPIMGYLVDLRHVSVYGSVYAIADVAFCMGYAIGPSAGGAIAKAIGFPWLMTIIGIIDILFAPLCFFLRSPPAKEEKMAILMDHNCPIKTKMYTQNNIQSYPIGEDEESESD
SMILES	IC50 [nM]
COc1cc(C(C)=O)ccc1OCCCN1CCC(c2noc3cc(F)ccc23)CC1	186
CCCN(CCc1cccs1)[C@H]1CCc2c(O)cccc2C1	850
COc1cc2c(Nc3ccc(Br)cc3F)ncnc2cc1OCC1CCN(C)CC1	514
O=c1ccc2ccc(OCCCCN3CCN(c4cccc5sccc45)CC3)cc2[nH]1	22
CN1CCN2c3c(cccc31)[C@@H]1CN(CCCC(=O)c3ccc(F)cc3)CC[C@@H]12	62
Cc1cc(Nc2ncc(Cl)c(Nc3ccccc3S(=O)(=O)C(C)C)n2)c(OC(C)C)cc1C1CCNCC1	1000
CN(C)C/C=C/C(=O)Nc1cc2c(Nc3ccc(F)c(Cl)c3)ncnc2cc1O[C@H]1CCOC1	540
CC(C(O)c1ccc(O)cc1)N1CCC(Cc2ccccc2)CC1 (centres unmarked)	312

Series 2
SMILES: COc1cc(C(=O)N2CCC(N3CCN(C)CC3)CC2)ccc1Nc1ncc2c(n1)N(C)c1ccccc1C(=O)N2C
target or system	test	test system	conditions	inhibition
ULK3 (mouse)	probe labelling, KiNativ, measured: EVVAIkCVAK peptide, LYS1 site	brain tissue lysate (mouse)	1 µM, together with: ATP acyl-phosphate probe	0.8%
SLK (mouse)	probe labelling, inhibitor, KiNativ ActivX ADP probe	mouse brain lysate	0.1 µM, Lys1 site peptide	1.1%
Dual specificity mitogen-activated protein kinase kinase 7 (Map2k7, Mus musculus, UniProt Q8CE90)	probe labelling, KiNativ, measured: DVkPSNILLDER peptide, Lys2 site	brain tissue lysate (mouse)	0.1 µM, together with: ATP acyl-phosphate probe	-9.6%
NDR2 (mouse)	probe labelling, KiNativ, measured: DTGHIYAMkILR peptide, LYS1 site	brain tissue lysate (mouse)	1 µM, together with: ATP acyl-phosphate probe	-8.4%
human PBMC	probe labeling, inhibitor, KiNativ profiling, measured: DTGHVYAMkILR	cell lysate	1 µM, LYS1 site, together with: ATP acyl-phosphate probe	4.9%
NEK6 and NEK7 human	KiNativ profiling	human PBMC	1 µM, LYS2 site, together with: ADP acyl phosphate probe	9.6%
ABL and ARG (mouse)	probe labelling, KiNativ, measured: Lys1 site peptide	brain tissue lysate (mouse)	1 µM, together with: ATP acyl-phosphate probe	14.2%

Series 3 — method: competition with immobilised ligand; concentration: 1 µM
Structure (SMILES): Cn1nc(C(F)(F)F)cc1-c1cnc(N2CCc3cc(S(=O)(=O)Nc4c(F)cc(Cl)cc4F)cc(N4CCCC4=O)c32)nc1
target	read-out	remaining binding [%]
NLK (Homo sapiens, UniProt Q9UBE8)	cell-free assay	98
CILK1 (Homo sapiens, UniProt Q9UPZ9)	binding	84
AKT1 (Homo sapiens, UniProt P31749)	cell-free assay	100
KIT (Homo sapiens, UniProt P10721, V559D/V654A)	cell-free assay	89
PRKG1 (Homo sapiens, UniProt Q13976)	cell-free assay	87
KIT (Homo sapiens, UniProt P10721)	cell-free assay	94
DCLK3 (Homo sapiens, UniProt Q9C098)	cell-free assay	86
TNK1 (Homo sapiens, UniProt Q13470)	cell-free assay	100
Ribosomal protein S6 kinase alpha-4, C-terminal kinase domain (RPS6KA4, Homo sapiens, UniProt O75676)	cell-free assay	85

Series 4 — SMILES: COc1cccc(-c2cc(=O)c3ccccc3o2)c1N; read-out: enzyme activity; action: inhibitor; concentration: 0.5 µM; relative to: control
target	remaining activity [%]
Myosin-IIIb (MYO3B, Homo sapiens, UniProt Q8WXR4)	97.8
NEK3 (Homo sapiens, UniProt P51956)	102
RPS6KA4 (Homo sapiens, UniProt O75676)	103
PNCK (Homo sapiens, UniProt Q6P2M8)	96.8
PLK3 (Homo sapiens, UniProt Q9H4B4)	98
DCLK2 (Homo sapiens, UniProt Q8N568)	88.3
MAPK14 (Homo sapiens, UniProt Q16539)	76.2
ROCK1 (Homo sapiens, UniProt Q13464)	95.6
MINK1 (Homo sapiens, UniProt Q8N4C8)	96.2
MET (Homo sapiens, UniProt P08581)	112
PAK3 (Homo sapiens, UniProt O75914)	90.7
KDR (Homo sapiens, UniProt P35968)	81.3
CAMK4 (Homo sapiens, UniProt Q16566)	104
MARK2 (Homo sapiens, UniProt Q7KZI7)	84.9

Repeated from above (series 4):
target	remaining activity [%]
DCLK2 (Homo sapiens, UniProt Q8N568)	88.3
MAPK14 (Homo sapiens, UniProt Q16539)	76.2
ROCK1 (Homo sapiens, UniProt Q13464)	95.6
MINK1 (Homo sapiens, UniProt Q8N4C8)	96.2
